{"data": "Published values pooled from the literature", "note": "Compare with care: the assays were run in different laboratories. ± gives the spread as reported."}
{"SMILES": "CC(C)=CCC[C@](C)(O[C@@H]1O[C@H](CO)[C@@H](O)[C@H](O)[C@H]1O)[C@H]1CC[C@]2(C)[C@@H]1[C@H](O)C[C@@H]1[C@@]3(C)CC[C@H](O[C@@H]4O[C@H](CO)[C@@H](O)[C@H](O)[C@H]4O[C@@H]4O[C@H](CO)[C@@H](O)[C@H](O)[C@H]4O)C(C)(C)[C@@H]3CC[C@]12C", "test system": "Sprague-Dawley rat, plasma", "setting": "oral, 200 mg/kg ginsenoside Rb1", "Tmax [h]": "10.6 ± 2.3"}
{"SMILES": "CC(C)=CCC[C@](C)(O[C@@H]1O[C@H](CO)[C@@H](O)[C@H](O)[C@H]1O)[C@H]1CC[C@]2(C)[C@@H]1[C@H](O)C[C@@H]1[C@@]3(C)CC[C@H](O)C(C)(C)[C@@H]3[C@@H](O[C@@H]3O[C@H](CO)[C@@H](O)[C@H](O)[C@H]3O[C@@H]3O[C@@H](C)[C@H](O)[C@@H](O)[C@H]3O)C[C@]12C", "test system": "Sprague Dawley rat, male, plasma", "setting": "oral, 45 mg/kg, mixture of pure ginsenosides", "Tmax [h]": "0.08 ± 0.02"}
{"SMILES": "CS(=O)(=O)c1ccc(-c2cnc(N)c(-c3ccc(C(F)(F)F)nc3)c2)cc1", "test system": "pregnant female Sprague-Dawley rat, plasma", "setting": "oral, 3 mg/kg/day, gestation day 17", "Tmax [h]": 8}
{"SMILES": "O=C(O)C[C@H](O)C[C@H](O)/C=C/c1c(C2CC2)nc2ccccc2c1-c1ccc(F)cc1", "test system": "male Sprague Dawley rat, NASH, plasma", "setting": "oral, 2.5 mg/kg, median, with: silymarin 500 mg/kg oral", "Tmax [h]": 1.25}
{"SMILES": "Cn1nnc2c(C(N)=O)ncn2c1=O", "test system": "male athymic rat, intracranial U87 glioma, tumour extracellular fluid", "setting": "oral, 50 mg/kg, uncorrected microdialysis, median, with: after cediranib", "Tmax [h]": 1.5}
{"SMILES": "CCCC[C@H](NC(C)=O)C(=O)N[C@H]1CCC(=O)NC[C@@H](C(=O)N[C@@H](Cc2c[nH]c3ccccc23)C(N)=O)NC(=O)[C@H](CCCNC(=N)N)NC(=O)[C@@H](Cc2ccccc2)NC(=O)[C@H](Cc2c[nH]cn2)NC1=O", "test system": "CD Sprague Dawley rat, male, plasma", "setting": "subcutaneous, 5.0 mg/kg daily, day 1", "Tmax [h]": 1}
{"SMILES": "CCN1CCN(c2ccc(Nc3cc(N(C)C(=O)Nc4c(Cl)c(OC)cc(OC)c4Cl)ncn3)cc2)CC1", "test system": "Crl:WI(Han) rat, juvenile female, plasma", "setting": "oral gavage, 0.3 mg/kg/day, postnatal day 17", "Tmax [h]": 1}
{"SMILES": "CC(C)=CCC[C@](C)(O[C@@H]1O[C@H](CO)[C@@H](O)[C@H](O)[C@H]1O)[C@H]1CC[C@]2(C)[C@@H]1[C@H](O)C[C@@H]1[C@@]3(C)CC[C@H](O)C(C)(C)[C@@H]3[C@@H](O[C@@H]3O[C@H](CO)[C@@H](O)[C@H](O)[C@H]3O)C[C@]12C", "test system": "Sprague Dawley rat, male, plasma", "setting": "oral, 25 mg/kg, frozen ginseng extract", "Tmax [h]": "0.25 ± 0.06"}
{"SMILES": "COc1cccc(-c2n[nH]c(SCc3ccccn3)n2)c1OC", "test system": "Sprague-Dawley rat, both sexes, plasma", "setting": "oral, diet, 100 mg/kg/day, day 7", "Tmax [h]": 12}
{"SMILES": "Cc1nc2cccc(OCC(C)(C)C(=O)NC(C)C)c2c(N)c1C(=O)O", "test system": "male Sprague-Dawley rat, plasma", "setting": "dietary, 100 mg/kg/day, day 7", "Tmax [h]": 3}
{"SMILES": "CC(C)=CCC[C@](C)(O[C@@H]1O[C@H](CO[C@@H]2O[C@H](CO)[C@@H](O)[C@H](O)[C@H]2O)[C@@H](O)[C@H](O)[C@H]1O)[C@H]1CC[C@]2(C)[C@@H]1[C@H](O)C[C@@H]1[C@@]3(C)CC[C@H](O[C@@H]4O[C@H](CO)[C@@H](O)[C@H](O)[C@H]4O[C@@H]4O[C@H](CO)[C@@H](O)[C@H](O)[C@H]4O)C(C)(C)[C@@H]3CC[C@]12C", "test system": "Sprague Dawley rat, male, plasma", "setting": "oral, 86 mg/kg, red ginseng extract", "Tmax [h]": "24 ± 4.1"}
